Experimental data pooled from the literature.
Compare with care: the assays were run in different laboratories. Numbers after ± are the reported error.

SMILES	assay	system	setting	Cmax
COc1ccnc(C[S+]([O-])c2nc3ccc(OC(F)F)cc3[nH]2)c1OC (stereo not shown)		human, CYP2C19 ultrarapid metabolizers, plasma	oral, 40 mg/day, day 1	4310 ng/mL
C=C(C)[C@@H]1CC[C@]2(NCCN3CCS(=O)(=O)CC3)CC[C@]3(C)[C@H](CC[C@@H]4[C@@]5(C)CC=C(C6=CC[C@@](CF)(C(=O)O)CC6)C(C)(C)[C@@H]5CC[C@]43C)[C@@H]12		human, plasma	oral, 200 mg multiple doses, day 1	614 ng/mL
Cc1nc(-c2ccc(OCC(C)C)c(C#N)c2)sc1C(=O)O		human, plasma	oral, 80 mg, with: verinurad 10 mg	1740 ng/mL
CCCS(=O)(=O)N[C@H]1C[C@@H](N(C)c2ncnc3[nH]ccc23)C1		humans, mild hepatic impairment	oral, 200 mg single	1280 ng/mL
CC(C)(/C=C(\C#N)C(=O)N1CCC[C@@H](n2nc(-c3ccc(Oc4ccccc4)cc3F)c3c(N)ncnc32)C1)N1CCN(C2COC2)CC1		human, plasma	oral, 100 mg single dose, mean	34 ng/mL
CCCCC1(CCCC)CN(c2ccccc2)c2cc(SC)c(OCC(=O)N[C@@H](C(=O)NCC(=O)O)c3ccccc3)cc2S(=O)(=O)C1	LC-MS/MS	human, plasma	oral, 20 mg, single dose, before breakfast	0.692 ng/mL
C=CC[C@@H]1/C=C(\C)C[C@H](C)C[C@H](OC)[C@H]2O[C@@](O)(C(=O)C(=O)N3CCCC[C@H]3C(=O)O[C@H](/C(C)=C/[C@@H]3CC[C@@H](O)[C@H](OC)C3)[C@H](C)[C@@H](O)CC1=O)[C@H](C)C[C@@H]2OC		healthy human subjects, whole blood	oral, 5 mg single dose, arithmetic mean, with: isavuconazole 200 mg once daily after loading	37.1 ng/mL
CN(Cc1cnc2nc(N)nc(N)c2n1)c1ccc(C(=O)N[C@@H](CCC(=O)O)C(=O)O)cc1		human, both sexes, plasma	oral, 20 mg, day 1, alone, arithmetic mean	607 ng/mL
CC(C)(Sc1ccncc1-c1ccc(C#N)c2ccccc12)C(=O)O		human, male, Japanese, plasma	oral, 5 mg, day 6, fed, single dose	9.21 ng/mL
C[C@@H]1CN(Cc2ncccn2)C[C@H]1c1nc2c(cnn2C2CCOCC2)c(=O)[nH]1		human	oral, 25 mg twice daily, day 7	284 ng/mL
CN(C)Cc1c(C(=O)NCCOc2ccc(C(=O)NO)cc2)oc2ccccc12		human, plasma	oral, 80 mg, single dose on day -3	164 ± 60.7 ng/mL
O=S(=O)(c1cccc2cnccc12)N1CCCNCC1		healthy human, plasma	oral, 30 mg	1.4 ng/mL
CS(=O)(=O)n1cc2c(n1)CN([C@H]1CO[C@H](c3cc(F)ccc3F)[C@@H](N)C1)C2		healthy male human, plasma	oral, 25 mg once weekly, day 15, fasted, geometric mean	565 nM
O=C(c1cc(Cc2n[nH]c(=O)c3ccccc23)ccc1F)N1CCN(C(=O)C2CC2)CC1		human patients, plasma	oral, 200 mg twice daily, day 2, with: pegylated liposomal doxorubicin	5200 ± 2800 ng/mL
CC1(C)CCC(CN2CCN(c3ccc(C(=O)NS(=O)(=O)c4ccc(NCC5CCOCC5)c([N+](=O)[O-])c4)c(Oc4cnc5[nH]ccc5c4)c3)CC2)=C(c2ccc(Cl)cc2)C1		human, plasma	oral, 600 mg, steady state, with: idasanutlin 200 mg	1150 ng/mL
C[C@H]1CNCCCN1S(=O)(=O)c1cccc2cncc(F)c12		human, male, plasma	ocular instillation, 1 drop per eye twice daily, day 8, geometric mean, with: brimonidine fixed-dose combination	0.346 ng/mL
CCCCCCCCCCCCCCC[C@H](O)[C@@H](N)CO		human, phase I, plasma	intravenous, 480 mg/m^2, day 1, monotherapy	15200 nM
CCOc1cc([C@@H](CS(C)(=O)=O)N2C(=O)c3cccc(NC(C)=O)c3C2=O)ccc1O[C@@H]1O[C@H](C(=O)O)[C@@H](O)[C@H](O)[C@H]1O		healthy human controls, plasma	oral, 30 mg apremilast, matched to moderate impairment	166 ng/mL
O=C(CCCCCCC(=O)Nc1ccccc1)NO		human, serum	oral, 300 mg three times daily, 3 days, with: idarubicin	991 nM

A few entries again:
SMILES	assay	system	setting	Cmax
CN(C)Cc1c(C(=O)NCCOc2ccc(C(=O)NO)cc2)oc2ccccc12		human, plasma	oral, 80 mg, single dose on day -3	164 ± 60.7 ng/mL
CCOc1cc([C@@H](CS(C)(=O)=O)N2C(=O)c3cccc(NC(C)=O)c3C2=O)ccc1O[C@@H]1O[C@H](C(=O)O)[C@@H](O)[C@H](O)[C@H]1O		healthy human controls, plasma	oral, 30 mg apremilast, matched to moderate impairment	166 ng/mL
Cc1nc(-c2ccc(OCC(C)C)c(C#N)c2)sc1C(=O)O		human, plasma	oral, 80 mg, with: verinurad 10 mg	1740 ng/mL
